Assay results pooled from the literature.
A part holds a random share of what one study measured.

Block 1
Target: Sal-like protein 4, full length isoform B (SALL4, Homo sapiens, UniProt Q9UJQ4-2, residues 1-616)
Technique: universal PBM
Molecule type: double-stranded DNA, one strand shown
Medium: in vitro
Tested at: not given
Setting: 8-mer, flanks averaged, mean of replicates
Direction: higher = stronger binding
Construct (chain): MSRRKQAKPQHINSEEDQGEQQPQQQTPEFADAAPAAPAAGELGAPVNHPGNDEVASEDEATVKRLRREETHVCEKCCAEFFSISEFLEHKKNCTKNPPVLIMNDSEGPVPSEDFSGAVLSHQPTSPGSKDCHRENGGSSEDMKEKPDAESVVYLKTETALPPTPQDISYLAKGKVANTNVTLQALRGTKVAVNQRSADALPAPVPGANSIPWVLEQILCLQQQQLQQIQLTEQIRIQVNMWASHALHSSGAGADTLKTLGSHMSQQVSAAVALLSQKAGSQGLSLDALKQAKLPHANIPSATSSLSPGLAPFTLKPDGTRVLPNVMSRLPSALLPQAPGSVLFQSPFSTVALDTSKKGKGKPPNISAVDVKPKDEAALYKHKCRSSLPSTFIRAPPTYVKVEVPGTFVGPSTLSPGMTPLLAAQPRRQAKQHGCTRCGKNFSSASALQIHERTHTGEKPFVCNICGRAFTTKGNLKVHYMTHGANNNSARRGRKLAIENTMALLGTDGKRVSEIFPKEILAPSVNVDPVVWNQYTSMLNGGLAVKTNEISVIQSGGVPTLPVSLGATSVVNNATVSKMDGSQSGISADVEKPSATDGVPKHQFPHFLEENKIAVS
Oligonucleotide | E-score
ACTCTCAA | 0.0994
GAATGCCA | 0.029
CGTGGCTA | -0.0564
ACAAGAAT | 0.137
AAAAAGAA | 0.201
ATGGCATG | 0.113
ATGCGCCA | 0.00795
AGGAATGA | 0.0633
ATTGTCGC | 0.0599
AGACTATC | 0.0964
ATGGTACG | 0.0902
AGTTCCAG | -0.287
AGTCTGAG | -0.175
ATAGACAG | 0.216

Block 2
Target: BIRC6 UBC core domain (UniProt Q9NR09)
Technique: yeast two-hybrid
Medium: yeast
Setting: mostly zero background
Baseline: not given
Direction: higher = stronger interaction
B1: VPS8 RING domain (UniProt Q8N3P4); chain TRGLNPKQDYCSICLQQYKRRQEMADEIIVFSCGHLYHSFCLQNKECTVEFEGQTRWTCYKCSSSNKVGKLSE
B2: CNOT4 RING domain (UniProt O95628); chain MSRSPDAKEDPVECPLCMEPLEIDDINFFPCTCGYQICRFCWHRIRTDENGLCPACRKPYPED
B3: BFAR RING domain (UniProt Q9NZS9); chain GPQISVSEFSCHCCYDILVNPTTLNCGHSFCRHCLALWWASSKKTECPECREKWEGFPKVS
B4: ZMYND11 RING domain (UniProt Q15326); chain DEIDWETENHDWYCFECHLPGEVLICDLCFRVYHSKCLSDEFRLRDSSSPWQCPVCRSIKKKNTNKQEM
B5: ARIH2 RING domain (UniProt O95376); chain HVPTSHPPHHCAVCMQFVRKENLLSLACQHQFCRSCWEQHCSVLVKDGVGVGVSCMAQDCPLRTPEDFVF
B6: TRIM11 RING domain (UniProt Q96F44); chain LSTNLQEEATCAICLDYFTDPVMTDCGHNFCRECIRRCWGQPEGPYACPECRELSPQRNLRP
B7: MKRN3 RING domain (UniProt Q13064); chain FAVQRGMDKVCGICMEVVYEKANPNDRRFGILSNCNHSFCIRCIRRWRSARQFENRIVKSCPQCRVTSELVIPSE
Residues (chain): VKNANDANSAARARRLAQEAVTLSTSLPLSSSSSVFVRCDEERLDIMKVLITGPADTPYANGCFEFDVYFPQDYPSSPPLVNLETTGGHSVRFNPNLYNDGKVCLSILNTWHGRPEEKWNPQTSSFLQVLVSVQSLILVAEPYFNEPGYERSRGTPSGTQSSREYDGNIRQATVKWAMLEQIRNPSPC
Molecule | lacZ reporter activity
B1 (VPS8 RING domain) | 0
B2 (CNOT4 RING domain) | 0
B3 (BFAR RING domain) | 0
FDPPLESKYECPICLMALREAVQTPCGHRFCKACIIKSIRDAGHKCPVDNEILLENQLFP (TRAF6 RING domain (UniProt Q9Y4K3)) | 0
B4 (ZMYND11 RING domain) | 0
B5 (ARIH2 RING domain) | 0
B6 (TRIM11 RING domain) | 0
B7 (MKRN3 RING domain) | 0

Block 3
Target: Hepatocyte nuclear factor 3-beta, forkhead domain (FOXA2, Homo sapiens, UniProt Q9Y261, residues 142-269)
Technique: protein-binding microarray
Molecule type: double-stranded DNA, one strand shown
Medium: in vitro
Tested at: not given
Setting: k-mer, scored over probes, only values ≥0.25
Direction: higher = stronger binding
Target sequence (chain): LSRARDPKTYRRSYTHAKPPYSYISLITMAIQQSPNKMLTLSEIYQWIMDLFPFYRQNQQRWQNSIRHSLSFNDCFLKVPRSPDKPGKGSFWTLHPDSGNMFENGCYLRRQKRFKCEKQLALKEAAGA
Oligonucleotide | E-score
AGCATGTA | 0.271
TATCTCAA | 0.344
ATAAGAAC | 0.279
ATGATATA | 0.375
CAACATTG | 0.298
AGCAAACA | 0.339
AATAACGG | 0.255
TAATATGA | 0.372

Block 4
Target: Phosphate system positive regulatory protein PHO4, full length, GST-tagged (PHO4, Saccharomyces cerevisiae, UniProt P07270, residues 1-312)
Technique: competition protein-binding microarray
Molecule type: double-stranded DNA, one strand shown
Medium: in vitro
Tested at: 2 µM
Setting: whole 60-bp probe, lowest competitor level
Added: Cbf1 competitor, 0.05 µM
Direction: higher = stronger binding
All sequences stand within: … GTCTTGATTCGCTTGACGCTGCTG
Target sequence (chain): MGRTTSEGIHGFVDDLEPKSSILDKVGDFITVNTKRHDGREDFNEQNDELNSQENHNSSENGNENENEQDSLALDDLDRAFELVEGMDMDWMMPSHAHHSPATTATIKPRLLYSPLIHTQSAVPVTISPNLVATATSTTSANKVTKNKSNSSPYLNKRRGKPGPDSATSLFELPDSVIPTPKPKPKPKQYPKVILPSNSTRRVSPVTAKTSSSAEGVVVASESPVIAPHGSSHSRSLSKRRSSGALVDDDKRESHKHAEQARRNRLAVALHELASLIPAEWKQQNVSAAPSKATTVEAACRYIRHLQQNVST
Oligonucleotide | fluorescence intensity
CATACCCAACCTTGTCACCTGACTTAAGATATTTGT | 4050 a.u.
ATGGGCCGATAGTACCACCTGATCTTGAGTTGTTTT | 4050 a.u.
CAGCCACTGGTGCTAAACGTGCTAAATTCAGAAAGA | 12400 a.u.
AAATTACTAAGTTGGATGGTGGGTGACGCCGTATGA | 4680 a.u.
TGCGCAACAACTTGTCACCCAACTTTATGTCTAGAA | 3510 a.u.
CAATTTGAAGTCCGTCACGGGAGGCAGTTGTTTGGT | 5310 a.u.
TATATTTCTTTCCATCACGTGCTTTAAAAATAATTA | 20200 a.u.
AAATTACTAAGTTGTCACCCCACTTACCCCGTATGA | 4270 a.u.
AAAGCGGTAATTTGTCACATCACTTCACATATCTAT | 3700 a.u.
ACTGGTTACGATGATAACGAGCACTATGTTTCCCCC | 5370 a.u.
CAACTTGATGGTCTACACGTTGTTTCAAGTGCATAC | 11300 a.u.
TATGTTTGCTACTGTCACACTGCCTTTCAATACGCT | 4070 a.u.
GATCGATTCGGCTGTCATGCCAAGATGCGAGTATGT | 4830 a.u.
GTCCACTCCCGCACTCACGTGTTCCCGCCTTGCCCT | 13800 a.u.
CGTACGGCAATAATCCTCGTGCAAAAATCTCTAAGA | 10500 a.u.
TAACTACCGCCCTAGTTCGTGCTTTCATTTTTTTGT | 6360 a.u.
CATACCCAACCTTGGTCCGTGGGTGAAGATATTTGT | 7170 a.u.
TTTCTCACAAGACTGCTCGTGGTGAGGCCGCTTTGG | 8030 a.u.
TGCGAAGGCACCTGGGTCGTGCCAGTATTTGGCGCC | 7640 a.u.
CTAACGAAGGTTTGCGAGGTGGGTGACAAGCCAAGT | 3650 a.u.
CTAACGAAGGTTTGTCGAGTGGGTGACAAGCCAAGT | 3300 a.u.
GTTATTTAAAGCTTCCACGTGCAAAATTTTAGGCAA | 17300 a.u.
CTAACGAAGGTTTGGATCGTGGGTGACAAGCCAAGT | 7960 a.u.
AAAGCGGTAATTTTTCACGTGAATTCACATATCTAT | 8130 a.u.
CGTCCTAGTGATTGCGAAGTGGGTGCCATGAGGAAG | 6420 a.u.

Block 5
Target: Hepatocyte nuclear factor 3-alpha (Foxa1, Mus musculus, UniProt P35582, residues 1-468, full length assumed)
Technique: EMSA with sequencing
Molecule type: double-stranded DNA, one strand shown
Medium: in vitro
Tested at: 10 and 20 nM
Setting: whole designed probe, mean of two concentrations, ends assumed
Baseline: negative control set to 0
Direction: higher = stronger binding
All sequences stand within: GTGAGCGGTGCCCATTGATGGGGAAC … TTTCACTGGGATCGTGGGGAC
Oligonucleotide | normalised bound fraction [ratio]
CACTAGCCAAGCAAATGCTACCTTTCCTAAATTACGCCGTGGTATTGTGTACGACAGCAGCAGGGTTGCTATTTTAAAATGGGATTGCGTAAAATAAACATGTGACAGGAAGTACCCAGATGCTAAGTTGATGATTAATTGATGCTCTGGTACGGCCTCGTGCTTTCCAGTGCTTCCATTTGTGTGACGATCC | 0.258
CATTAGAGTCAAAGTTGTTAAGGGGAGCTAGTCATAGCTACCACGTGGCCAGGCATGTGGAACCAGACACCAGGCACACATCATGTAACATCATATTTACTTTAAATAATGCATGAATCATCATTCATAGTGACACACTACTTGAGATATATAGAATAACATTATTACCCAGTAAGTATGTGAACATTCCGAT | 0.293
CTCCTATTTGTTCTGTTTTTCTGAAAAACCCTAACATGTAACCAAATTACCCCTTTCTTCACACATCATTCTTCCAATCATGCTTTCTTTAAAATAATCTGCTAAATGTTTCTTCCTTTTAAGAAAGGTCTGTGTGCTACAGATTACCCTGCAAATGTTCTTTGTGACTATGTAGGAAAGATCAGGCACATCC | 0.0128
ATCTTCCCCCTCTTCCTTGCCCCACCAGCTCACCTTCCCGGGTTATTTGCACAAAGGAAAATAAATAAAGCCGGCATTCGTTAACCCTCTTCTGGCGCAAACTGCTGTTTGCTCTGCATCTAACATGGTCCTTACGCGACGCCAGGCTCCGGGAGAGCAAAGCACCGTGTCAGGCGCATGATCCGGGGTGGCC | 0.375
AATATTTCAAACACTACGTACCCCAACTGACATTTGAGTAGCAGTTAAGTTCTTGGAACGCTGCCATTTTGATCTAGCTGTTACGTAACCATTGTAAACAGGATGAAATAGGGCAGTTAAAAGACTAATGGTCAGTGAAATCTACAACAGGAATGGAAAGAATTTTCCCCTTAAAAATTTGGAAATCCTTATT | -0.00155
ATCTTCCCCCTCTTCCTTGCCCCACCAGCTCACCTACGGGGGTTATTTGCAGATAGGAAAATAAATAAAGCCGGCATTCGTTAACCCTCTTCACGCGCATACTGCTGTTTGCTCTGGATGAATCATGGTCCTTTGGCGACGCCAGGCTCCGGGAGAGCAAAGCACCGTGTCAGGGCCATGATCCGGGGTGGCC | 0.351
CATCACAGCCTATCCCTGACTGAATTAGTAAATGCATTTTCCATATGAATTTACAACTTATGTAGTAATTATCACATTTGCCAATGTTTGTCCTTGTTTACACATGAATGTTAGCTAAAACACTTTCGATTATTGCCAACATTAACCCATTAAAGATGTATTTGATTCTCAACAGTCAAAATAGAATTTGAGT | 0.346
AAGATATGATTATTATACGTGTGTCTGTTTTTATATAGAATTTGTTAGAAGTCTCTAGTACACCATACCAGAAAAAGTTTAGCTAAAACAAAGTAAACATGAAATATTGCAAAGAAAACCAATAGAAACTTAACAGAATAAATAATATTTATTTTCCAGAATAAAGACACAATATAAGTGAAGCTTCAAATTT | 0.389

Block 6
Target: Histone acetyltransferase KAT6A, winged helix 1, GST fusion (KAT6A, Homo sapiens, UniProt Q92794, residues 1-85)
Technique: protein binding microarray
Molecule type: double-stranded DNA, one strand shown
Medium: in vitro
Tested at: not given
Setting: 8-mer, flanks averaged, mean of 2 arrays, mostly near background
Baseline: not given
Direction: higher = stronger binding
Construct (chain): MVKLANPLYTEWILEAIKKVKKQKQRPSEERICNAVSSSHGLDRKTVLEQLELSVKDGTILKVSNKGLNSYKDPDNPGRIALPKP
Oligonucleotide | E-score
AGGAATGA | -0.111
TGAAAGCA | -0.274
CTTCTTAC | 0.0883
CTCGTCGA | -0.174
AACCCATG | -0.151
GAGCGCTA | 0.264
AAAGGTGA | -0.0888
CCAACCAC | -0.212
ACTTTTAC | -0.0496
GGGAACCC | 0.116
AGATAACG | 0.0234
CCAACAGC | -0.0747
CTTATTTC | -0.22
AAGTCAGT | -0.0372
CCCACCCA | -0.234
GCCTTTTA | -0.0192
AAACCCCT | -0.0919
AGACTCTC | -0.152
GAGCGACA | -0.0609
TACCCAGA | -0.28
CCCCTTTA | -0.142
AGGACTCG | -0.0904
CCTACACG | -0.024
GCACCTAC | -0.0639
ACGCTTAG | 0.15
